Experimental data pooled from the literature.
Parts stem from different laboratories: compare values within a part only.

Study 1
Target: RING finger protein unkempt homolog, zinc fingers 1-6, GST-SBP tag (UNK, Homo sapiens, UniProt Q9C0B0, residues 30-357)
Method: RNA Bind-n-Seq
Molecule type: RNA
Sample: in vitro
Tested at: not given
Setting: RNA with constant flanks, human and mouse sites, ends assumed
Baseline: input RNA pool
Reading: higher = stronger binding
Measurement: bound/input enrichment
All sequences stand within: GGGAGUUCUACAGUCCGACGAUC … CAACAGAGGAUUGAGCAUCA
Target sequence (chain): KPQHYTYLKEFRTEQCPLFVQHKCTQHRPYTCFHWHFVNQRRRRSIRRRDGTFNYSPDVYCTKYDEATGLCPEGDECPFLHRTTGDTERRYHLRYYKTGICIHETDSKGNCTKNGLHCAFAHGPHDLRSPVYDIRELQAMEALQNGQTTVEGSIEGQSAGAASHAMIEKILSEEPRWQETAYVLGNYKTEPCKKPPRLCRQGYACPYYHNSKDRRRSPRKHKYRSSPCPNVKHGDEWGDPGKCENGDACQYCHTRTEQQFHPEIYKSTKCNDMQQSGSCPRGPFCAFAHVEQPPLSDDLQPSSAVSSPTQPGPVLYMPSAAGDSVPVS
Sequence = AAACUCAGAGAGACCUUGACUUUCUUUGAUGAGCUUGAAAACAUCGGCAGAUAUCAAGGAACUAGUAACUUUAGGGAGAGUUUGGCAUCCCUGGUCCAGAGCUGCAGAAAACUUCAGAGC; result = 0.295 ratio
Sequence = ACCAGAGAUGAGACCAACUAUGGCAUACCACAGCGUGCUCUGAGAGGUCACUCCCACUUCGUUAGUGAUGUUGUUAUCUCCUCUGAUGGUCAGUUUGCCCUCUCGGGCUCCUGGGACGGA; result = 0.349 ratio
Sequence = CCUACUAUAAACAACUCAGGGCAGUAUUCUCGAUAUCCUUACAGUAACCUAAAUCAGGGAUUAGUUAACAAUACAGGGAUGAAUCAAAAUUUAGGCCUUACAAAUAAUACUCCAAUGAAU; result = 4.76 ratio
Sequence = AAGGAACUUGCAUCAGCACUGAAGUCAGCCUUAUCUGGCCACCUGGAGACGGUGAUUUUGGGCCUAUUGAAGACACCUGCUCAGUAUGACGCUUCUGAGCUAAAAGCUUCCAUGAAGGGG; result = 0.0752 ratio
Sequence = AGAAAAAUCCAUCUCUCUGAAUUAAUGCUUGAGAAAUGCCCUUUUCCUGCUGGCUCAGAUUUAGCCCAAAAAUGGCAUUUGAUUAAACAGCAUACAGCUCCUGUGAGCCCACAUUCAACA; result = 0.24 ratio
Sequence = CUUUGUCUAGCAAAUAAAAGAUGUUAAUAUAUUCCUGUUAUUGGCAUGUGCACGACUGUUAUUAGAAGCCACUUUAUCAUUUUCCUGCUUUAAAUAGAAAUGUCUAUUUAUGAAUUCUGC; result = 2.83 ratio
Sequence = UGGGUGGCAAAAUCCCUUGUUAAAGGAGGUCUGUGCAGGAGGGUUCUUGUUCAGGUCUCUUAUGCUAUUGGAGUUUCUCAUCCAUUGUCGAUCUCCAUUUUCCAUUAUGGCACUUCUCAG; result = 0.0877 ratio
Sequence = UAUGAGACAGUGGUUGGCCCUGGGGAUGUUCUUUACAUCCCAAUGUACUGGUGGCACCAUAUAGAGUCAUUACUAAAUGGGGGAAUUACCAUCACUGUGAACUUCUGGUAUAAGGGGGCU; result = 0.214 ratio

Study 2
Target: Ras GTPase-activating protein-binding protein 1, full length (G3BP1, Homo sapiens, UniProt Q13283)
Chain of UniProt Q13283 (whole entry, looked up): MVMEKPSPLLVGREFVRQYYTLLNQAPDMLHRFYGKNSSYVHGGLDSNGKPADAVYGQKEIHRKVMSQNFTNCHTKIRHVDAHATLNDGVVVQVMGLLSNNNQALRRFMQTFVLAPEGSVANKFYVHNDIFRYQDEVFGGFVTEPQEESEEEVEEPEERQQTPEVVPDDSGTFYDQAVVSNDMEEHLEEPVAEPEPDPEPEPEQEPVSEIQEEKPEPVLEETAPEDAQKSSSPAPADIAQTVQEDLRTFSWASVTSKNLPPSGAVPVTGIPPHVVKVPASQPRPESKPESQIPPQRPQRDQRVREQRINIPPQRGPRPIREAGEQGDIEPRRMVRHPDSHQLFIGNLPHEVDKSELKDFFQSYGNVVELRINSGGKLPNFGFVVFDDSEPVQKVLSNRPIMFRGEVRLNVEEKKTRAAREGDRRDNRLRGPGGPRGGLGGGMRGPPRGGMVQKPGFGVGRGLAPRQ
Method: RNA Bind-n-Seq
Molecule type: RNA
Sample: in vitro
Tested at: 200 nM
Setting: whole 134-nt RNA, ends assumed
With: 150 mM KCl
Baseline: input library
Reading: higher = stronger binding
Measurement: log2 enrichment
All sequences stand within: GGGAGUUCUACAGUCCGACGAUC … UGGAAUUCUCGGGUGUCAAGG
Sequence = UAACUUUAGAGGAGGAUCUGAUGGAUAUGGCAGAGGACGUGGAUUUGGGGAUGGCUAUAAUGGGUAUGGAGGAGGACCUGGAGGUGGCAA; result = 0.426
Sequence = GUCCUGUGCUACACAUCGUAUGUACCGAAUCGGGUUUUUGGUUUUUGGGUUUUUGGGGAAAGUAUUAUGUUACGCCGUUCGGAUCUGCAC; result = -0.692
Sequence = CUGUGCUACACAUCGUAUGUACCGAAUCGGGUUUUUUUGGGGUUUUUUUGGUUUUUUUGGGAAAGUAUUAUGUUACGCCGUUCGGAUCUG; result = -0.945
Sequence = CUCAAGUCCUGUGCUACACAUCGUAUGUACCGAAUCGGGAGGGGAGGGGAGGGGAAAGUAUUAUGUUACGCCGUUCGGAUCUGCACUUCC; result = 1.49
Sequence = CUCAAGUCCUGUGCUACACAUCGUAUGUACCGAAUCGGCCGGGGCCGGCCGGGGAAAGUAUUAUGUUACGCCGUUCGGAUCUGCACUUCC; result = -0.628
Sequence = UGGGAGGUGGAUUUUGUUUAUUUCUUUAGCUCAUUUCCAGGGGUGGGAAUUUUUUUUUAAUAUGUGUCAUGAAUAAAGUUGUUUUUGAAA; result = 0.219
Sequence = CAAGUCCUGUGCUACACAUCGUAUGUACCGAAUCGGGAAAGGGAGGGUUUUUGGGAAAGUAUUAUGUUACGCCGUUCGGAUCUGCACUUC; result = 0.539
Sequence = UUUCUAGCUGGACCAGUCCGGUACGCUCCGGGCCUCACCGAGGAAGUCCCACCCUGCAGGGGAACCGACUCUGGCCGGCCCUAACCCCUC; result = -0.458
Sequence = UCCUGUGCUACACAUCGUAUGUACCGAAUCGGGGAAAAAAGGGAAAAAAGGAAAAAAGGGAAAGUAUUAUGUUACGCCGUUCGGAUCUGC; result = -0.198

Study 3
Target: Interferon regulatory factor 3, full length, phosphomimetic (IRF3, Homo sapiens, UniProt Q14653, residues 1-427, S386D/S396D/S398D/S402D/T404D/S405D)
Method: protein-binding microarray
Molecule type: double-stranded DNA, one strand shown
Sample: in vitro
Tested at: 2540 nM top
Setting: 60-bp whole probe
With: salmon DNA 0.4 mg/ml
Baseline: random background probes
Reading: higher = stronger binding
Measurement: fitted relative affinity
All sequences stand within: GCCTAGCAC … GTCTTGATTCGCTTGACGCTGCTG
Construct (chain): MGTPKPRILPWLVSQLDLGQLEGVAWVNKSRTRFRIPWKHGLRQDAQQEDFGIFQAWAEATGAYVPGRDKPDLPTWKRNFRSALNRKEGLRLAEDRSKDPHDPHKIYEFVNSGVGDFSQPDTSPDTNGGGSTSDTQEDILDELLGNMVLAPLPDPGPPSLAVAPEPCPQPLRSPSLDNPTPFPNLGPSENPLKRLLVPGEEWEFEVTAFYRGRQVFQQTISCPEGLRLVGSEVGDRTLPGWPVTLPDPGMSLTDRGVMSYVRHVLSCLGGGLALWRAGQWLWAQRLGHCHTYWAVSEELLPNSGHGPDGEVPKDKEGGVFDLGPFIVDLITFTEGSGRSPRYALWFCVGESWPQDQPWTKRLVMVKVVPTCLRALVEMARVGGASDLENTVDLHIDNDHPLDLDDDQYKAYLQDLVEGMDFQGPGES
Sequence = TCATCTCCCCCATCTTGTACTGTGCTA; result = 1.42 z-score
Sequence = GACGGCCTGGGGTTTCGGGACGTGCTA; result = 0.159 z-score
Sequence = TTGGTTTTCTCTATTGCTTTGTGCTAG; result = 0.907 z-score
Sequence = GGTTTTCTAATGTTTTTTAAAGTGCTA; result = 2.94 z-score
Sequence = GACGGTACCGGACTGGGGACGTGCTAG; result = 0.593 z-score
Sequence = GACGGTCTCCTTCTCCTGAGGTGCTAG; result = 4.2 z-score
Sequence = TTAGGTTTCGACACAGGGTTAGTGCTA; result = 2.09 z-score
Sequence = CAGTAGATGGCGCCTGAGAGGTGCTAG; result = -0.752 z-score
Sequence = GACGGTTTCGGTTTCGGGCCGTGCTAG; result = 9.9 z-score
Sequence = CTAATATTGAGACTCATGGGGTGCTAG; result = 0.9 z-score
Sequence = TTTGATATCGGGTATCGATTAGTGCTA; result = 0.454 z-score
Sequence = TCAGTTCTCCCTTTCAGACTGTGCTAG; result = 3.88 z-score
Sequence = TTAGGTTTCTACACTGGGTTAGTGCTA; result = 0.948 z-score
Sequence = TTAGATTTCGGGGCTGGATTAGTGCTA; result = 0.297 z-score
Sequence = GACGGACTGCTTTTTCTGACGTGCTAG; result = -0.0608 z-score
Sequence = TCATCATTGCATATAGAACTGTGCTAG; result = 0.175 z-score
Sequence = TCAAAACTAAGTTTATTACTGTGCTAG; result = -0.0503 z-score
Sequence = TCAACTAGGGCATTTAGAACTGTGCTA; result = -0.616 z-score
Sequence = ATAGGTTTCGGGTTTCGGTTAGTGCTA; result = 6.46 z-score

Study 4
Target: Histone acetyltransferase KAT6A, winged helix 1, GST fusion (KAT6A, Homo sapiens, UniProt Q92794, residues 1-85)
Method: protein binding microarray
Molecule type: double-stranded DNA, one strand shown
Sample: in vitro
Tested at: not given
Setting: 8-mer, flanks averaged, mean of 2 arrays, mostly near background
Baseline: not given
Reading: higher = stronger binding
Measurement: E-score
Target sequence (chain): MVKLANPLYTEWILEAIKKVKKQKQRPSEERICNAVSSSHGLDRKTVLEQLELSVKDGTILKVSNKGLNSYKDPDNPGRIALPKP
Sequence = GAATACCC; result = -0.0148
Sequence = AATCCCAA; result = -0.212
Sequence = GCCGCTCC; result = 0.416
Sequence = AAGGCGCA; result = 0.232
Sequence = ACTATGAA; result = -0.0946
Sequence = CTGGGGTA; result = -0.165
Sequence = AAATCCGC; result = 0.284
Sequence = ATTGGGGA; result = -0.291
Sequence = GGCCGGCC; result = 0.354
Sequence = AGGATAAA; result = -0.227
Sequence = ATTCTTGC; result = 0.0448
Sequence = CAGATTTA; result = -0.153
Sequence = CGACCCTA; result = -0.0806
Sequence = ACCGTCGA; result = 0.0515
Sequence = ACGATCTA; result = -0.27
Sequence = ATCTTTAG; result = -0.127
Sequence = GAGCGTAA; result = 0.226
Sequence = CCTACCAA; result = -0.207
Sequence = CGTGACTA; result = 0.00936
Sequence = AGTGACTG; result = -0.164
Sequence = CAGGCGTA; result = -0.0063
Sequence = CAGCATGG; result = -0.108
Sequence = GCACGGTA; result = 0.214
Sequence = GCCTCAGC; result = 0.0258
Sequence = CCACACCA; result = -0.119
